Experimental data of several laboratories.
Each numbered part is a random draw from the data of one study; scales do not carry over between parts. Changes are numbered by the printed parent chain.

Study 1
Target: RING finger protein unkempt homolog, zinc fingers 1-6, GST-SBP tag (UNK, Homo sapiens, UniProt Q9C0B0, residues 30-357)
Sequence of UniProt Q9C0B0 (30-357, looked up): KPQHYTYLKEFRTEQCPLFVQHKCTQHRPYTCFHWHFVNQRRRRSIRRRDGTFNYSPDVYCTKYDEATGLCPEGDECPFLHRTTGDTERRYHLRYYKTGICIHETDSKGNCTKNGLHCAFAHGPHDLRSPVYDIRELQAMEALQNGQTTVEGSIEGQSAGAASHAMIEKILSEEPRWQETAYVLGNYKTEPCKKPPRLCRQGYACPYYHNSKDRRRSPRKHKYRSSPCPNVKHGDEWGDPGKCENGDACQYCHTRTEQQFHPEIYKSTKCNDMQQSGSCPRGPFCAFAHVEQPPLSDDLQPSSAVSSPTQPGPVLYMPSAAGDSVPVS
Technique: RNA Bind-n-Seq
Form: RNA
Medium: in vitro
Tested at: not given
Setting: RNA with constant flanks, human and mouse sites, ends assumed
Baseline: input RNA pool
Direction: higher = stronger binding
Shared flanks, not repeated: GGGAGUUCUACAGUCCGACGAUC … CAACAGAGGAUUGAGCAUCA
| Oligonucleotide | bound/input enrichment |
| --- | --- |
| UUGGAAGAGACCAGUGUUGAAAGACAAAUACUUCAUCAGAAGGAAACAAAUCAGGAUGUGCAAUGUAAUCGUUUUUUCCCAAGUAGAAAAACAAAGCCUGUGAAAUGUAUACUAAAUGGA | 0.296 ratio |
| AAACCCCAGGCUGUUUCUUCAUUAAACUCUAGUCAUUCCAGGUCUCAUGGGAAUGAUCACCAUAGCAAGGAACAUCAACGCUCCAAAUCACCUCGGGACCCUGAUGCAAACUGGGAUUCU | 0.245 ratio |
| UGUGUAGCCUUUUUUAAUAUCCUUAAUGAGUUAAAUGACUAUGCAGGACAGCGAGAAGUUGUAGCAGAAGAAAUGGCGCACAGAGUGUAUGGUGAAUUAAUGAGAUAUGCUCAUGAUCUG | 1.69 ratio |
| UCAAAUACACUAUGAAGCUAAAGAAUUACUUGGCACCAGAUGCUACAGCUGCAGAUAAACGACUCACAGUACUUUGCCUGCGAUGCGAGUCUUUGCUGUACCUGAGGCUGUUCAAACUGA | 0.122 ratio |
| GGGGAGGGGGACCCGGGGGGCGCAGGGGACUACGGGAACGGCCUGGAGUCUGAGGAGCUGGAGCCUGGGGAGCUGCUGCCGGAGCCCGAGCCCGAAGAGGAGCCGCCCCGGCCCCGCGCC | 1.26 ratio |
| UCCCCCAGGAGAGGGACCGCCUUCCCAGCUGUAAGCCUCCUGUCCCUCUGUCCCCAUGUCCUGGUGGGACCCCUGCUGGCAGCAGUGGCGGCAGCCCUGGUGAAGACCCCAGGAGAACAG | 0.122 ratio |
| UUAGCUCUCAUUGACUACCUGACACAGAAACGGAGCCAGUUGGUAAAGAAGCUGAAUGACUCGGAUCACCAGUCCAGCACCUCCCCGCUCAUGGAGGGCACUCCCACCAUCAAGUCCAAG | 0.086 ratio |
| CGUACCCUCAAUAAGGUUGCCAUGAAGCAUCCGUCAGCUGUGACAGCUUGUAAUCUGGAUCUGGAGAACCUGGUCACAGAUUCAAACCGCAGCAUUGCCACGCUGGCCAUCACCACCCUC | 0.165 ratio |
| AAGGAGAAGUGGGUGGAGAGUGCCUUUGAAGUGGACGGGCCCUACUAUUUCACAGUCUUGGCCCUUCACAUCCUGCCCCCUGAGCAGUGGAGAGCCACACGUGUGGAAAUCUUGCGGAGG | 0.199 ratio |
| UAGGCCUGUGUUAUAUGUUAUAUUUAGCCUUUUUAUAUAUGACCCUUGAUCUGUUUGUAUUUGAACACUGUGUGUGUCCACUUUAAUACAUUUGUGCAGACAUGCACAUUACAUACGUGU | 13.6 ratio |
| AUGAACCUGCAGAUAGUGGACAGAGCCAUUCAGGUAGUCCGAAGUGCGUUGGCCAACCAGAUAGACUGGACAGAAAUCGGAGUGAUUGUGAAAGAAGCUCAAGCUCAAGGAGACCCGGUU | 0.171 ratio |

Study 2
Target: Histone acetyltransferase KAT6A, winged helix 2, GST fusion (KAT6A, Homo sapiens, UniProt Q92794, residues 85-181)
Technique: protein binding microarray
Form: double-stranded DNA, one strand shown
Medium: in vitro
Tested at: not given
Setting: 8-mer, flanks averaged, mean of 2 arrays, mostly near background
Baseline: not given
Direction: higher = stronger binding
Construct (chain): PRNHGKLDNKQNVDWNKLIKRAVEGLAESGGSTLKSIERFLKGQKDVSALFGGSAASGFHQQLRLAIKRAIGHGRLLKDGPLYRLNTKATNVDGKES
| Oligonucleotide | E-score |
| --- | --- |
| GACCACCA | 0.057 |
| AGTTGTGG | -0.0373 |
| CTTCACCA | -0.0665 |
| ACAAACTA | 0.0685 |
| CCACCACG | 0.0166 |
| CGAATTGC | -0.115 |
| CGATGGGA | -0.101 |
| ACTGTTTG | -0.118 |
| ATACACCC | -0.0307 |
| CCCTACAC | -0.0752 |
| CCATCCAC | -0.185 |
| ACTAGACC | -0.0806 |
| CTAGGCGA | -0.0788 |
| ACAGAATA | -0.0987 |
| AGACAGTG | -0.0389 |
| AACTGCTT | -0.0897 |
| CCGTAATC | -0.0529 |
| TAATATTA | 0.12 |
| ACCCTCGG | 0.0583 |
| CTGGTCTC | -0.0763 |
| GGCACGAA | 0.159 |
| ATTACGGA | -0.0137 |
| CCACTCTC | -0.0392 |
| AAACAGGC | -0.126 |
| CCAATTTA | 0.0655 |

Study 3
Target: CCNB3, cyclin fold, Cln2 fusion (human)
Technique: yeast growth competition, sequencing
Medium: yeast
Setting: weak parent motif
Baseline: not given
Direction: higher = stronger binding
Starting sequence: CDKN1A docking peptide (human); SKACRRLFGPVDS; partner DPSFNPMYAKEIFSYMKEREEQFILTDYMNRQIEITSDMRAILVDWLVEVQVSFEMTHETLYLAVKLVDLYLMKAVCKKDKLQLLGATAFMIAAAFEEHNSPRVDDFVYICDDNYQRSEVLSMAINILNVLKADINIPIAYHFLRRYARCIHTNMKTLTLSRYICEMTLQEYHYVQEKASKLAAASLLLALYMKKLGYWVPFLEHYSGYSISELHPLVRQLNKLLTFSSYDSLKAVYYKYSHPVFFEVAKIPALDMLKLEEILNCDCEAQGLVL
| Variant | normalised enrichment score |
| --- | --- |
| G9F | 0.612 |
| G9R | 0.323 |
| F8K | 0.123 |
| P10S | 0.604 |
| V11E | 0.446 |
| L7N | 0.214 |
| R6Y | 0.412 |
| L7K | 0.333 |
| R5K | 0.433 |
| A3V | 1.19 |
| A3R | 0.063 |
| C4G | 0.289 |
| A3L | 0.221 |
| C4Q | 0.443 |
| P10I | 0.608 |
| R6S | 0.292 |
| R5P | -0.0667 |
| A3I | 0.639 |
| R6D | 0.0235 |

Study 4
Target: ABI1, truncated, D143A, DHFR fusion (Arabidopsis thaliana, UniProt P49597)
Technique: DHFR PCA, dose-response
Medium: yeast
Setting: Hill fit, mean, not affinity
Together with: (+)-ABA, dose series
Direction: lower = more sensitive
Starting sequence: PYL1, truncated, DHFR fusion (Arabidopsis thaliana, UniProt Q8VZS8); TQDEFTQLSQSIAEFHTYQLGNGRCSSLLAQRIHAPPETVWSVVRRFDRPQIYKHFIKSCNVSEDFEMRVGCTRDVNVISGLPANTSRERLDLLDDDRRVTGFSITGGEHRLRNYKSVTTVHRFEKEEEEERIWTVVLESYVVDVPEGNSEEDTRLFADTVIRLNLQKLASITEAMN
| Variant | ABA EC50 |
| --- | --- |
| G71D | 81.3 µM |
| K116Y | 308 µM |
| F103V | 537 µM |
| G71M | 121 µM |
| I162N | 161 µM |
| G23F | 22.8 µM |
| F157C | 754 µM |
| L94F | 2.32 µM |
| I105N | 146 µM |
| T106Q | 9.16 µM |
| V70I | 1.84 µM |
| R132S | 0.531 µM |
| S26K | 12 µM |
| D159Y | 641 µM |
| P83H | 206 µM |
| K116I | 196 µM |
| R69M | 2.4 µM |
| T119S | 72.8 µM |
| F124Q | 7.62 µM |
| E127H | 3.14 µM |
| R49D | 38.8 µM |
| Y18K | 7.06 µM |
| E139F | 330 µM |
| T86F | 0.874 µM |
| E139K | 150 µM |

Study 5
Target: UBE2E1 UBC core domain (UniProt P51965)
Sequence of UniProt P51965 (whole entry, looked up): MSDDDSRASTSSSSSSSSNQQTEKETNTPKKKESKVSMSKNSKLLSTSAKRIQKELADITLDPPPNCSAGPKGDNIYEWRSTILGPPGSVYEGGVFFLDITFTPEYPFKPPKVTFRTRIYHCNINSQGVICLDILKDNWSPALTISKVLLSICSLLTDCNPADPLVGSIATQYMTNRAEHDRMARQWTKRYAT
Technique: yeast two-hybrid
Medium: yeast
Setting: mostly zero background
Baseline: not given
Direction: higher = stronger interaction
B1: RFPL3 RING domain (UniProt O75679); chain MAALFQEASSCPVCSDYLEKPMSLECGCTVCLKCINSLQKEPHGEDLLCCCCSMVSQRNKIRP
B2: RNF32 RING domain (UniProt Q9H0A6); chain VQALRRETHECSICLAPLSAAGGQRVGAGRRSREMALLSCSHVFHHACLLALEEFSVGDRPPFHACPLCRSCYQKKILEC
B3: ARIH1 RING domain (UniProt Q9Y4X5); chain NTRSSAQDMPCQICYLNYPNSYFTGLECGHKFCMQCWSEYLTTKIMEEGMGQTISCPAHGCDILVDDNTVM
B4: CBLL1 RING domain (UniProt Q75N03); chain GEKDDTPVHFCDKCGLPIKIYGRMIPCKHVFCYDCAILHEKKGDKMCPGCSDPVQRIEQCT
B5: TRIM32 RING domain (UniProt Q13049); chain NLDALREVLECPICMESFTEEQLRPKLLHCGHTICRQCLEKLLASSINGVRCPFCSKITRITSLTQ
B6: MARCHF2 RING domain (UniProt Q9P0N8); chain RLLSTVIRALDTPSDGPFCRICHEGANGECLLSPCGCTGTLGAVHKSCLEKWLSSSNTSYCELCHTEFAVEKRPRPLTEWL
B7: TRIM28 RING domain (UniProt Q13263); chain GAEALELLEHCGVCRERLRPEREPRLLPCLHSACSACLGPAAPAAANSSGDGGAAGDGTVVDCPVCKQQCFSKDIVE
B8: RMND5B RING domain (UniProt Q96G75); chain MKCWYHSVFACPILRQQTSDSNPPIKLICGHVISRDALNKLINGGKLKCPYCPMEQNPADGK
B9: NHLRC1 RING domain (UniProt Q6VVB1); chain MREAEISLLECKVCFEKFGHRQQRRPRNLSCGHVVCLACVAALAHPRTLALECPFCRRACRGCDTSD
B10: RNF7 RING domain (UniProt Q9UBF6); chain AICRVQVMDACLRCQAENKQEDCVVVWGECNHSFHNCCMSLWVKQNNRCPLCQQDWVVQRIGK
B11: MDM2 RING domain (UniProt Q00987); chain TQDKEESVESSLPLNAIEPCVICQGRPKNGCIVHGKTGHLMACFTCAKKLKKRNKPCPVCRQPIQMIVLTYFP
B12: RNF10 RING domain (UniProt Q8N5U6); chain VRICSHEVPSCPICLYPPTAAKITRCGHIFCWACILHYLSLSEKTWSKCPICYSSVHKKDLKS
B13: RNF17 RING domain (UniProt Q9BXT8); chain SQPWGAAEIQCTRCGRRVSRSSGHHCELQCGHAFCELCLLMTEECTTIICPDCEVATAVNTRQR
| Molecule | lacZ reporter activity |
| --- | --- |
| B1 (RFPL3 RING domain) | 0 |
| B2 (RNF32 RING domain) | 0 |
| SNNDLASLFECPVCFDYVLPPILQCQSGHLVCSNCRPKLTCCPTCRGPLGSIRNLA (SIAH1 RING domain (UniProt Q8IUQ4)) | 0 |
| EIKDYKARLTCPCCNMRKKDAVLTKCFHVFCFECVKTRYDTRQRKCPKCNAAFGANDFHR (RNF20 RING domain (UniProt Q5VTR2)) | 0 |
| B3 (ARIH1 RING domain) | 0 |
| B4 (CBLL1 RING domain) | 0 |
| B5 (TRIM32 RING domain) | 0 |
| B6 (MARCHF2 RING domain) | 0 |
| B7 (TRIM28 RING domain) | 0 |
| B8 (RMND5B RING domain) | 13400 |
| VPADASPDSKCPICLDRFDNVSYLDRCLHKFCFRCVQEWSKNKAECPLCKQPFDSIFHSV (TOPORS RING domain (UniProt Q9NS56)) | 12500 |
| B9 (NHLRC1 RING domain) | 0 |
| B10 (RNF7 RING domain) | 0 |
| B11 (MDM2 RING domain) | 0 |
| B12 (RNF10 RING domain) | 0 |
| B13 (RNF17 RING domain) | 0 |

Some of these lines once more (study 4):
| Variant | ABA EC50 |
| --- | --- |
| G71M | 121 µM |
| I162N | 161 µM |
| G23F | 22.8 µM |
| F157C | 754 µM |
| L94F | 2.32 µM |
| I105N | 146 µM |
| T106Q | 9.16 µM |
| V70I | 1.84 µM |
| R132S | 0.531 µM |
| S26K | 12 µM |
| D159Y | 641 µM |
| P83H | 206 µM |
| K116I | 196 µM |
| R69M | 2.4 µM |
